# Results collected from several papers.
# A part holds a random share of what one study measured. Changes are numbered by the printed parent chain.
# Chain of UniProt Q9Y2X8 (whole entry, looked up): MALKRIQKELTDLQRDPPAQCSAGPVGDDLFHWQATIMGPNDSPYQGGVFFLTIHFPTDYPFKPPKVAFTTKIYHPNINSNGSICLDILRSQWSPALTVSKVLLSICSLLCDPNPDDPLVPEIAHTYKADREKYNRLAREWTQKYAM

# Block 1
# Target: MAFF, bZIP domain (human)
# Method: DHFR protein complementation
# Sample: yeast
# Notes: single substitutions, most at no-binding floor
# Baseline: wild-type JUN-FOS pair
# Reading: higher = stronger binding
# Starting sequence: JUN, bZIP domain (human); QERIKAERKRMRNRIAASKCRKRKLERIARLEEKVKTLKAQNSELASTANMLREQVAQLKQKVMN; partner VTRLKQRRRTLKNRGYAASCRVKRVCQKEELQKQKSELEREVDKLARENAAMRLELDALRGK
Change,binding fitness [natural log]
Q41W,-1.43
A29E,-1.26
V35K,-1.56
V56L,-1.31
R53Q,-1.39
K36G,-1.49
A40P,-1.47
L38A,-1.41

# Block 2
# Target: Histone acetyltransferase KAT6A, winged helix 2, GST fusion (KAT6A, Homo sapiens, UniProt Q92794, residues 85-181)
# Method: protein binding microarray
# Molecule type: double-stranded DNA, one strand shown
# Sample: in vitro
# Concentration: not given
# Notes: 8-mer, flanks averaged, mean of 2 arrays, mostly near background
# Baseline: not given
# Reading: higher = stronger binding
# Construct (chain): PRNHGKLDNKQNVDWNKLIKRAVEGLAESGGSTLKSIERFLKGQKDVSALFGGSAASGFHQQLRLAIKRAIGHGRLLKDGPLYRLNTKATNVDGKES
Strand,E-score
CAAGTTAC,-0.0172
ACAGATAA,0.00855
CCGACCGC,0.106
ATAACAGC,0.00749
AATACTGT,0.11
CCCCTATA,-0.223
CCTGACAG,-0.0388
GAAAGGTC,-0.173

# Mixed results
# HLA class I histocompatibility antigen, A alpha chain allele A*25:01: HLA class I histocompatibility antigen, A alpha chain, allele A*25:01 (Homo sapiens, UniProt P04439)
Molecule,target,test,system,conditions,scale,endpoint,value
LQNFCQHLV,"HLA class I histocompatibility antigen, A alpha chain allele A*25:01",peptide-MHC binding,peptide,concentration not given,,binding,inactive
LEALSSDFLACKICLEQLRAPKTLPCLHTYCQDCLAQLADGGRVRCPECRETVPVPPEGV (TRIM56 RING domain (UniProt Q9BRZ2)),UBE2D4 UBC core domain (UniProt Q9Y2X8),yeast two-hybrid,yeast,mostly zero background,"baseline: not given, higher = stronger interaction",lacZ reporter activity,0
FLAFFSNGV,"HLA class I histocompatibility antigen, A alpha chain allele A*25:01",peptide-MHC binding,peptide,concentration not given,,binding,inactive

# Excerpt of the above (mixed results):
Molecule,target,test,system,conditions,scale,endpoint,value
LEALSSDFLACKICLEQLRAPKTLPCLHTYCQDCLAQLADGGRVRCPECRETVPVPPEGV (TRIM56 RING domain (UniProt Q9BRZ2)),UBE2D4 UBC core domain (UniProt Q9Y2X8),yeast two-hybrid,yeast,mostly zero background,"baseline: not given, higher = stronger interaction",lacZ reporter activity,0
FLAFFSNGV,"HLA class I histocompatibility antigen, A alpha chain allele A*25:01",peptide-MHC binding,peptide,concentration not given,,binding,inactive
